Measured values pooled from the literature.
± marks the error that the study gave.
CDK2 with cyclin A: Cyclin-dependent kinase 2, with cyclin A (CDK2, Homo sapiens, UniProt P24941)

O=C(Nc1cccc(-c2nc3ccccc3o2)c1)c1cc([N+](=O)[O-])c(F)cc1Cl
EC50 (J774.A1; cytotoxicity): 1.9 ± 0.5 µM

CCOC(=O)C1=C(C)NC2=C(C(=O)OC(c3ccc(OC)c(OC)c3)C2)C1c1ccc(-c2ccccc2)cc1 (stereo not drawn)
EC50 (J774.A1; cytotoxicity): > 20 µM

Cn1cc(-c2ccc(-c3cncc(Cl)c3N3CCC4(CCNC4=O)CC3)cc2)cn1
fold change in expression (COLO 205; microarray, item: c-Jun; concentration not given, 2 h; baseline: untreated cells): 1.44

COc1cnc2cccc(N3CCc4c(cc(Cn5ccnc5C)cc4-c4cn(C)nc4C(F)(F)F)C3=O)c2c1
EC50 (HCC70; cell growth, inhibitor; 120 h): > 30 µM

CCOC(=O)C1=C(C)NC2=C(C(=O)OC(c3ccccc3OC)C2)C1c1ccccc1Cl (stereo not drawn)
EC50 (J774.A1; cytotoxicity): > 20 µM

CCn1cc(-c2cc(Cn3ccnc3)cc3c2CCN([C@H](c2cc(OC)ccn2)C2CC2)C3=O)c(C(F)(F)F)n1
EC50 (HLC1; cell growth, inhibitor; 120 h): 0.154 µM

CCOC(=O)C1=C(C)NC2=C(C(=O)OC(c3ccc(OC)c(OC)c3)C2)C1c1ccc(C)cc1 (stereo not drawn)
EC50 (J774.A1; cytotoxicity): > 20 µM

Nc1cccc2c1CN(C1CCC(=O)NC1=O)C2=O (stereo not drawn)
EC50 (BRD4-HiBiT cells; BRD4 degradation rescue, inhibitor; 4 h, together with: dBET6 500 nM): 7.29 µM

COc1ccc(C2CC3=C(C(=O)O2)C(c2ccccc2Cl)C(C(=O)OC(C)(C)C)=C(C)N3)cc1OC (mixture of isomers)
EC50 (J774.A1; cytotoxicity): > 20 µM

O=C(Nc1cncc(-c2nc3ccccc3o2)c1)c1cc([N+](=O)[O-])c(N2CCNCC2)cc1Cl
EC50 (J774.A1; cytotoxicity): 0.75 µM

CSc1ccc(S(=O)(=O)NCc2ccccn2)cc1
Kd (CDK2 with cyclin A): > 100 µM

O=C(Nc1cncc(-c2nc3ccccc3s2)c1)c1cc([N+](=O)[O-])c(N2CCNCC2)cc1Cl
EC50 (J774.A1; cytotoxicity): 2.2 ± 0.7 µM

O=C(CSc1nnc(-c2ccc([N+](=O)[O-])cc2)n1-c1ccccc1)N1CCOCC1
Kd (CDK2 with cyclin A): > 100 µM

NS(=O)(=O)OC[C@@H]1C[C@@H](n2ccc3c(N[C@H]4CCc5ccccc54)ncnc32)C[C@@H]1O
EC50 (BRD4-HiBiT cells; BRD4 degradation rescue, inhibitor; 2 h, together with: dBET6 500 nM): 0.0944 µM

Cc1nn(-c2nc3c(F)cc(F)cc3s2)c(O)c1C(c1ccccc1C(F)(F)F)c1c(C)nn(-c2nc3c(F)cc(F)cc3s2)c1O
EC50 (THP1-Dual; IFN reporter gene, inhibitor, luciferase reporter; together with: HT-DNA): 18.3 µM

Cc1cc(OCc2nnc(SC3CCCC3)n2-c2cccnc2)ccc1-c1ccc(S(C)(=O)=O)cc1
EC50 (BRD4-HiBiT cells; BRD4 degradation rescue, inhibitor; 4 h, together with: dBET6 500 nM): 12.2 µM

CCn1cc(-c2cc(Cn3ccoc3=N)cc3c2CCN([C@@H](C)c2cc(OC)ccn2)C3=O)c(C(F)(F)F)n1
EC50 (MINO; cell growth, inhibitor; 120 h): 0.316 µM

CC(C)C[C@H](NC(=O)[C@H](Cc1ccccc1)NC(=O)c1cnccn1)B(O)O
EC50 (BRD4-HiBiT cells; BRD4 degradation rescue, inhibitor; 4 h, 50% degradation rescued, together with: dBET6 500 nM): 0.121 µM

CCOC(=O)C1=C(C)NC2=C(C(=O)OC(c3cccc(Cl)c3)C2)C1c1ccccc1Cl (stereo not drawn)
EC50 (J774.A1; cytotoxicity): > 20 µM

COC[C@H](NC(=O)c1cnc(C)s1)C(=O)N[C@@H](COC)C(=O)N[C@@H](Cc1ccccc1)C(=O)[C@@]1(C)CO1
EC50 (BRD4-HiBiT cells; BRD4 degradation rescue, inhibitor; 8 h, together with: dBET6 500 nM): 4.54 µM

COc1ccc(C2CC3=C(C(=O)O2)C(c2ccccc2Cl)C(C(=O)OCc2ccccc2)=C(C)N3)cc1OC (stereo not drawn)
EC50 (J774.A1; cytotoxicity): > 20 µM

Some of these lines once more:
Nc1cccc2c1CN(C1CCC(=O)NC1=O)C2=O (stereo not drawn)
EC50 (BRD4-HiBiT cells; BRD4 degradation rescue, inhibitor; 4 h, together with: dBET6 500 nM): 7.29 µM

CSc1ccc(S(=O)(=O)NCc2ccccn2)cc1
Kd (CDK2 with cyclin A): > 100 µM

COC[C@H](NC(=O)c1cnc(C)s1)C(=O)N[C@@H](COC)C(=O)N[C@@H](Cc1ccccc1)C(=O)[C@@]1(C)CO1
EC50 (BRD4-HiBiT cells; BRD4 degradation rescue, inhibitor; 8 h, together with: dBET6 500 nM): 4.54 µM
